Results from different studies.
Compare with care: the assays were run in different laboratories. Numbers after ± are the reported error.

Under “drug-related abnormal liver function”, `C[C@@H](NC(=O)N1C(=O)[C@H](Cc2ccnc(N)c2)[C@H]1C(=O)O)C1CCCCC1` is recorded as 25% (healthy adult Chinese volunteers; continuous intravenous infusion, 2.25 mg/kg/h, 5-day infusion, CTCAE 5.0 grading).
`Cc1ccc(S(=O)(=O)n2c(N)nc3ccccc32)cc1` gave a plasma concentration of 5240 ± 620 nM (mouse, plasma; intraperitoneal, 30 mg/kg, 20 min).
For `C[C@]1(CO)Cc2ncn(-c3ccc(C#N)c(Cl)c3)c2C(=O)O1`, “drug-related abnormal skin odour” read 0% (human; all treatments, European food-effect part).
The recovery of `CC(C)CC(=O)OC[C@H]1O[C@@](C#N)(c2ccc3c(N)ncnn23)[C@H](O)[C@@H]1O` is reported as 84.2% (plasma protein binding; rat plasma; 90 µM, time not given).
`COc1ccc(-c2c(-c3ccc(C#N)c(F)c3)nc(N3CCC(N)CC3)n(C)c2=O)cc1F`: “serious adverse event incidence” 2% (measured: Neutropenia; human patients; oral, dose not given, dose escalation, NG).
For `O=C(Nc1ccc2c(c1)B(O)OC2)c1ccc(OCc2ccc(Cl)cc2)cc1`, the acceptor concentration was 19 ± 0.8 µM (PAMPA; pre-coated trilayer membrane; 200 µM, 5 h, pH 7.4, acceptor plate, PBS).
`N#C[C@@]1(n2ccc(N)nc2=O)O[C@H](CO)[C@@H](O)[C@H]1O` has a clearance of 15.5 mL/min/kg (CD-1 mouse; oral, 30 mg/kg).
The AUC(0-last) of `CCC[C@@](N)(CO)CCc1ccc(OCCCCCC(C)C)cc1` is reported as 21.7 µM·h (hound dogs, male; oral, 20 mg/kg, capsule, fed state, geometric mean).
`C=C(C)[C@@H]1CCC(C)=C[C@H]1c1c(O)cc(CCC)c(C(=O)O)c1O` has a plasma concentration of 45000 ± 6000 ng/mL (LC-MS/MS; Scn1a+/− mice, plasma; intraperitoneal, 30 mg/kg, after hyperthermia protocol).
`CC(=O)c1c(C)c2cnc(Nc3ccc(C4CCN(CCS(C)(=O)=O)CC4)cn3)nc2n(C2CCCC2)c1=O` has an AUC(0-inf) of 646 ng·h/mL (human, dose-escalation trial, plasma; oral, 25 mg twice daily, day 1, single dose).
For `CN1CC[C@@H](c2c(O)cc(O)c3c(=O)cc(-c4ccc(C(F)(F)F)cc4Cl)oc23)[C@@H]1CO`, “patients with adverse event” read 0% (measured: Epistaxis; relapsed B-cell malignancies; oral, 150 mg, grade 3-4, intermittent dosing).
`COc1ccc([C@@H](O)c2cc(-c3ncnc4cc(N5CCOCC5)ccc34)c(F)cc2Cl)nn1` — result for “gastrointestinal disorders incidence”: 4% (patients, advanced solid tumours; oral, 250 mg twice daily, treatment-emergent, added: avelumab).
Under “incidence of fatal serious TRAEs”, `C=CC(=O)N1CCC(c2ccc(C(N)=O)c(-c3ccc(Oc4ccccc4)cc3)n2)CC1` is recorded as 0% (CTCAE 4.03; patients with relapsed/refractory MCL; oral, 100 mg twice daily).
For `CCN1[C@@H](C(=O)NC23CCC(C(=O)O)(CC2)CC3)[C@H](c2cccc(Cl)c2F)[C@]2(C(=O)Nc3cc(Cl)ccc32)C12CCCCC2`, “abdominal pain incidence” read 0% (patients with advanced solid tumours; oral, 200 mg).
`CO[C@H]1C[C@@H]2CC[C@@H](C)[C@@](O)(O2)C(=O)C(=O)N2CCCC[C@H]2C(=O)O[C@H]([C@H](C)C[C@@H]2CC[C@@H](OC(=O)NCCOCCOCCOCCOCCOCCOCCOCCOCCC(=O)N3CCc4cc(Cn5nc(-c6ccc7oc(N)nc7c6)c6c(N)ncnc65)ccc4C3)[C@H](OC)C2)C[C@@H](O)[C@H](C)/C=C(\C)[C@@H](O)[C@@H](OC)C(=O)[C@H](C)C[C@H](C)/C=C/C=C/C=C/1C` — result for “any TRAE incidence”: 33.3% (phase 1 dose escalation; advanced solid tumour patients; intravenous, 6 mg weekly, grade ≥3).
`CN[C@@H](C)C(=O)N[C@H]1CN(S(=O)(=O)c2cccc(S(=O)(=O)N3CC[C@H]4CC[C@@H](C(=O)NC(c5ccccc5)c5ccccc5)N4C(=O)[C@@H](NC(=O)[C@H](C)NC)C3)c2)CC[C@H]2CC[C@@H](C(=O)NC(c3ccccc3)c3ccccc3)N2C1=O` has a treatment-related asthenia of 3.6% (patients advanced solid tumours; dose not given, all grades all doses).
`CN1CCN(S(=O)(=O)c2cc([N+](=O)[O-])ccc2N(CCOS(C)(=O)=O)CCOS(C)(=O)=O)CC1` gave an amylase of 762 U/L (naive NOD/SCID mice, pooled blood; intraperitoneal, 12.5 mg/kg, week 4).
The related SAE of `CNC(=O)c1cc(Oc2ccc(NC(=O)Nc3cc(C(C)(C)C)nn3-c3ccc4ncccc4c3)c(F)c2)ccn1` is reported as 33% (muscular weakness, NCI CTC v3.0; human patients; oral, 1200 mg once daily, dose at onset).
Under “dose fraction in milk fat”, `O=[N+]([O-])NC1=NCCN1Cc1ccc(Cl)nc1` is recorded as 2.5% (whole cow milk; 20 nM nominal).
Under “adverse event Nasopharyngitis”, `O=C(Nc1ccccc1)C1CCN(C(=O)Oc2cccnc2)CC1` is recorded as 0% (healthy women; oral, 20 mg, 7 days).
With `N=c1c2c(-c3ccccc3)c(-c3ccccc3)n(Cc3ccccc3)c2ncn1[C@H]1CC[C@H](O)CC1` the AUC(0-t)/AUC(0-inf) ratio was over 95% (cynomolgus monkey, male, plasma).
For `COc1ncccc1-c1cnn2ccc(N3CCN(C(=O)OC(C)C)CC3)nc12`, the drug concentration was 310 nM (rat, thermal hyperalgesia model, brain; oral, 1 mg/kg, 180 min).
`CCc1ccc(CC/C=C/c2ccc3c(c2)C(=O)CC3)cc1` gave an MCHC of 314 g/L (Sprague-Dawley rat, male; oral, 450 mg/kg/day, 14 days).
For `COc1cc2c(Oc3ccc4[nH]c(C)cc4c3F)ccnc2cc1OCC1(N)CC1`, “grade 1 or 2 Epistaxis” read 25% (paediatric recurrent refractory sarcoma; 10 mg).
`C[C@]1(O)C[C@@](N)(c2ccc(-c3nc4n(c3-c3ccccc3)COc3ccncc3-4)cc2)C1`: “patients with grade ≥3 Stomatitis TEAE” 28.6% (human, advanced or metastatic solid tumours; intermittent, dose escalation total).
`CCN1CCN(Cc2ccc(Nc3ncc(F)c(-c4cc(F)c5nc6n(c5c4)[C@H](C)CCC6)n3)nc2)CC1`: “weight loss any grade” 29.2% (patients with advanced solid tumours; dose not given, phase Ia monotherapy).

Excerpt of the above:
The AUC(0-last) of `CCC[C@@](N)(CO)CCc1ccc(OCCCCCC(C)C)cc1` is reported as 21.7 µM·h (hound dogs, male; oral, 20 mg/kg, capsule, fed state, geometric mean).
`N#C[C@@]1(n2ccc(N)nc2=O)O[C@H](CO)[C@@H](O)[C@H]1O` has a clearance of 15.5 mL/min/kg (CD-1 mouse; oral, 30 mg/kg).
`COc1ccc(-c2c(-c3ccc(C#N)c(F)c3)nc(N3CCC(N)CC3)n(C)c2=O)cc1F`: “serious adverse event incidence” 2% (measured: Neutropenia; human patients; oral, dose not given, dose escalation, NG).
